Measurements of several laboratories.
Parts stem from different laboratories: compare values within a part only. Substitutions count along the parent as printed.

Block 1
Target: POU domain, class 5, transcription factor 1, POU domain (Pou5f1, Mus musculus, UniProt P20263, residues 131-289)
Chain of UniProt P20263 (131-289, looked up): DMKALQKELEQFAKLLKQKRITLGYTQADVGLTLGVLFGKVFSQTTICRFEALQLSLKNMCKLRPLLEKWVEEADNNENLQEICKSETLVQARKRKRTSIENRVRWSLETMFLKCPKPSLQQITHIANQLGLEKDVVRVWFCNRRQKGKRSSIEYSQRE
Method: Spec-seq
Form: double-stranded DNA, one strand shown
Medium: in vitro
Concentration: not given
Setting: whole probe, mean of replicates
Relative to: not given
Direction: lower = stronger binding
Shared flanks, not repeated: GAGTCGTCTCGTCAGCAC … CCGTAGAGCACTCAGGTC
`GTCTTAAT` — result for “relative binding energy”: 0.666 ln ratio.
Under “relative binding energy”, `ATGCCAGT` is recorded as 0.762 ln ratio.
Under “relative binding energy”, `CACATAAT` is recorded as 0.118 ln ratio.
Under “relative binding energy”, `CTCGTAAT` is recorded as 1.02 ln ratio.
`ATAATTAT` — result for “relative binding energy”: -1.85 ln ratio.
Under “relative binding energy”, `ATGCGGGC` is recorded as 0.553 ln ratio.
For `TGTCTAAT`, “relative binding energy” read 0.656 ln ratio.

Block 2
Target: Sal-like protein 4, full length isoform B (SALL4, Homo sapiens, UniProt Q9UJQ4-2, residues 1-616)
Method: universal PBM
Form: double-stranded DNA, one strand shown
Medium: in vitro
Concentration: not given
Setting: 8-mer, flanks averaged, mean of replicates
Direction: higher = stronger binding
Construct (chain): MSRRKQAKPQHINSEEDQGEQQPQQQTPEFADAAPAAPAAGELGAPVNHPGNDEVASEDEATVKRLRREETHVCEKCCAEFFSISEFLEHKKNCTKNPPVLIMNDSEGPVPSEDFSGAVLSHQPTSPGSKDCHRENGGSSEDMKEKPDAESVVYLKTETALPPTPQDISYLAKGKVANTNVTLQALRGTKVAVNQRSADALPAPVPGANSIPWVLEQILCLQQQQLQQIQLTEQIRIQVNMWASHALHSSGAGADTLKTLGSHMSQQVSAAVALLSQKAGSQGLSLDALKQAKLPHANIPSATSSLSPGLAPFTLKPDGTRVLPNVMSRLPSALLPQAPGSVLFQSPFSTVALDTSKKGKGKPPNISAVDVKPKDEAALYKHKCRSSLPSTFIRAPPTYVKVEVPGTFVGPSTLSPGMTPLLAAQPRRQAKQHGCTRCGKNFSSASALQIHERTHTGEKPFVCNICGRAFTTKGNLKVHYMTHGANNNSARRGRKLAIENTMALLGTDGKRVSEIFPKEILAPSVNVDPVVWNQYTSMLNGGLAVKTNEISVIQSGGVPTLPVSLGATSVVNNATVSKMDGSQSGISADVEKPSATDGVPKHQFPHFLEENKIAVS
With `CGGCAAAC` the E-score was -0.205.
The E-score of `ATGCCTCA` is reported as 0.0625.
`AGCGGCCC` gave an E-score of -0.352.
`AAGCTAGT` gave an E-score of 0.103.
With `AATCCACT` the E-score was 0.0323.
For `CCTATCTC`, the E-score was -0.116.
`CTAAGGCA` has an E-score of -0.129.
For `GCCAACCC`, the E-score was -0.183.
The E-score of `GTCTGATA` is reported as 0.128.

Block 3
Target: CCND1, cyclin fold, Cln2 fusion (human)
Method: yeast growth competition, sequencing
Medium: yeast
Setting: weak parent motif
Relative to: not given
Direction: higher = stronger binding
Parent: WEE1 docking peptide (human); HKTFRKLRLFDTP
`HKTFRKLRVFDTP [L9V]`: “normalised enrichment score” -0.185.
`HKTFRKTRLFDTP [L7T]`: “normalised enrichment score” -0.659.
For `HKTFTKLRLFDTP [R5T]`, “normalised enrichment score” read 0.413.
`FKTFRKLRLFDTP [H1F]` — result for “normalised enrichment score”: -0.227.
Under “normalised enrichment score”, `HKAFRKLRLFDTP [T3A]` is recorded as 0.194.

Single results of other studies
With `PhoQ, residues 284 288 289 292 302 303 NLMGRA` the fold induction was 16.1 (PhoP, residues 12 14 15 18 19 VQGLL (Escherichia coli, UniProt P23836); Sort-seq, measured: YFP reporter; E. coli; PhoQ-PhoP variant library, added: 10 µM Mg2+; relative to: high Mg2+ state, higher = stronger signaling).

Some of these lines once more (block 2):
For `GCCAACCC`, the E-score was -0.183.
The E-score of `GTCTGATA` is reported as 0.128.
